Experimental data collected from several papers.
Lines come from different studies, so protocols differ.

CCC1=[N+]2N=C(/C=C/C=C/c3ccccc3)C(=O)O[B-]2(c2ccccc2)Oc2cc(N(CC)CC)ccc21 (stereo not drawn)
fluorescence lifetime (toluene): 1.18 ns

CCCCN1C(=O)c2cccc3c(NCCCN4CCOCC4)ccc(c23)C1=O
fluorescence lifetime (methanol): 9.3 ns

O=c1cc(/C=C/c2ccc(N(c3ccccc3)c3ccccc3)cc2)oc(/C=C/c2ccc(N(c3ccccc3)c3ccccc3)cc2)c1
fluorescence lifetime (acetonitrile/water 1:19 v/v; 298 K, aggregate nanoparticle suspension, added: excitation 377 nm): 2.2 ns

COc1ccc2c(c1)O[B-]1(c3ccccc3)OC(=O)C(c3ccccc3)=N[N+]1=C2C (stereo not drawn)
fluorescence lifetime (toluene): 1.05 ns

CCCCN1C(=O)c2cccc3c(NCCCCCCN4CCOCC4)ccc(c23)C1=O
fluorescence lifetime (toluene): 8.6 ns

O=c1cc(/C=C/c2ccc(N3CCOCC3)cc2)oc(/C=C/c2ccc(N3CCOCC3)cc2)c1
fluorescence lifetime (acetonitrile/water 1:19 v/v; 298 K, aggregate nanoparticle suspension, added: excitation 377 nm): 1.1 ns

C=Cc1ccc([B-]23OC(=O)C(c4ccccc4)=N[N+]2=Cc2ccc(N(CC)CC)cc2O3)cc1 (stereo not drawn)
fluorescence lifetime (toluene): 2.53 ns

O=c1c(O)c(-c2ccc(N(c3ccccc3)c3ccccc3)cc2)oc2cc3ccccc3cc12
fluorescence lifetime (DMSO, N2-purged): 0.97 ns

O=c1cc(/C=C/c2ccc(N3CCCC3)cc2)oc(/C=C/c2ccc(N3CCCC3)cc2)c1
fluorescence lifetime (acetonitrile; 298 K, added: excitation 377 nm): 0.31 ns

CCCCN1C(=O)c2cccc3c(NCCN4CCOCC4)ccc(c23)C1=O
fluorescence lifetime (methanol): 9.7 ns

CN(C)c1ccc(/C=C/c2cc(=O)cc(/C=C/c3ccc(N(C)C)cc3)o2)cc1
fluorescence lifetime (acetonitrile/water 1:19 v/v; 298 K, aggregate nanoparticle suspension, added: excitation 377 nm): 1.4 ns

CCN(CC)c1ccc2c(c1)O[B-]1(c3ccccc3C)OC(=O)C(c3ccccc3)=N[N+]1=C2 (stereo not drawn)
fluorescence lifetime (toluene): 2.32 ns

Excerpt of the above:
CCCCN1C(=O)c2cccc3c(NCCN4CCOCC4)ccc(c23)C1=O
fluorescence lifetime (methanol): 9.7 ns

CN(C)c1ccc(/C=C/c2cc(=O)cc(/C=C/c3ccc(N(C)C)cc3)o2)cc1
fluorescence lifetime (acetonitrile/water 1:19 v/v; 298 K, aggregate nanoparticle suspension, added: excitation 377 nm): 1.4 ns
